# Values quoted from earlier work, collected from citations in different studies.
# Protocols differ between the studies behind these lines. pIC50, pKi: −log10 of the molar value.
# UniProt Q15375, sequence (whole entry, looked up): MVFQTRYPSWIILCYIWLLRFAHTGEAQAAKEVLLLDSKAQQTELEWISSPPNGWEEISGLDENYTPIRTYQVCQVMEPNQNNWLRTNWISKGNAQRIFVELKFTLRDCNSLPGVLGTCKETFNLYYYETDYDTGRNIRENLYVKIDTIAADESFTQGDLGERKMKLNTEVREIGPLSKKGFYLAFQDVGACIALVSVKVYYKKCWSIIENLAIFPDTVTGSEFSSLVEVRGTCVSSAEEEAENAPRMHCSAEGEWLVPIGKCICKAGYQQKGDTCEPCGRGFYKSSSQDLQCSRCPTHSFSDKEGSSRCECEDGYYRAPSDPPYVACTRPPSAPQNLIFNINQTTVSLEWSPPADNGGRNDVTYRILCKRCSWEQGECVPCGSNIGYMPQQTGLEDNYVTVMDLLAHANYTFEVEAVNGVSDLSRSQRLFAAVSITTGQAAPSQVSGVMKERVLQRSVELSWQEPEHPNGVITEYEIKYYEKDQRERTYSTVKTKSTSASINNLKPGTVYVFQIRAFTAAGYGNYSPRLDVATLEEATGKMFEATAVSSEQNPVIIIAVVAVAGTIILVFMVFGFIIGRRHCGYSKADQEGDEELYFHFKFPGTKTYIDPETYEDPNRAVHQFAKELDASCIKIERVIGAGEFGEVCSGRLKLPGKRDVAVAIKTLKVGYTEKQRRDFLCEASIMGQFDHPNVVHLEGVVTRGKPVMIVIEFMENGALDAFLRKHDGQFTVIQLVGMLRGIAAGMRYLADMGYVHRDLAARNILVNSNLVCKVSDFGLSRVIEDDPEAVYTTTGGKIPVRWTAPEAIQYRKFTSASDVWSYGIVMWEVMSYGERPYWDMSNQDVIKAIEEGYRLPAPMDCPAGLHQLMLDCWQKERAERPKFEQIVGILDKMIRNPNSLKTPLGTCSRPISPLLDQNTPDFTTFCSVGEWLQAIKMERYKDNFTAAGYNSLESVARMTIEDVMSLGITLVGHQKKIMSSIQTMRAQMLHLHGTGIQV
SMILES,target,assay,test system,setting,how to read,measurement,result
C=CC(=O)Nc1cc(Nc2nccc(-c3cn(C)c4ccccc34)n2)c(OC)cc1N(C)CCN(C)C,CYP2C9,,,,,metabolism contribution,15.5%
N#CCNC(=O)c1ccc(-c2ccnc(Nc3ccc(N4CCOCC4)cc3)n2)cc1,CYP2C9,,human hepatocytes,,,contribution to metabolism,17%
COC(=O)N[C@H](C(=O)N1CCC[C@H]1c1nc(-c2ccc3c(c2)O[C@@H](c2ccccc2)n2c-3cc3cc(-c4c[nH]c([C@@H]5CCCN5C(=O)[C@@H](NC(=O)OC)C(C)C)n4)ccc32)c[nH]1)C(C)C,CYP2C9,inhibitor,human liver microsomes,,,pIC50,< 4.00
CC(C(=O)O)c1ccc(-c2ccccc2)c(F)c1 (stereo not drawn),CYP2C9,substrate,,,,Km,6 to 42 µM
CNCc1cn(S(=O)(=O)c2cccc(F)c2)c(-c2ccc(F)cc2F)c1OC,CYP2C9,"enzyme activity, inhibitor",,,,pIC50,< 4.30
FC(F)OC(Cl)C(F)(F)F (stereo not drawn),CYP2C9,inhibitor,,Tox21 screening,,IC50,inactive
Cc1nn(C)cc1S(=O)(=O)NC(=O)c1ccc(-n2ccc(OCC(C)(C)C(F)(F)F)n2)nc1N1C[C@@H](C)CC1(C)C,CYP2C9,inhibitor,,,,pKi,5.26
N#CCNC(=O)c1ccc(-c2ccnc(Nc3ccc(N4CCOCC4=O)cc3)n2)cc1,CYP2C9,"enzyme activity, inhibitor",,concentration not given,,inhibition,no inhibition
COc1cc2c(Oc3ccc4[nH]c(C)cc4c3F)ccnc2cc1OCC1(N)CC1,CYP2C9,reversible inhibitor,,,,pIC50,5.81
O=S(=O)(O)C(F)(F)F,CYP2C9,inhibitor,,Tox21 screening,,IC50,inactive
CC(=O)Nc1ccc(O)cc1,CYP2C9,substrate,,,,Vmax,0.0864 pmol/min/pmol
Fc1c(F)c(F)c(Br)c(F)c1F,CYP2C9,,,concentration not given,,activity,inactive
CC(C)(CO)c1cc2cc(NC(=O)C3(c4ccc5c(c4)OC(F)(F)O5)CC3)c(F)cc2n1C[C@@H](O)CO,CYP2C9,inhibitor,,,,pKi,4.87
FC(F)(F)C(F)(F)C(F)(F)C(F)(F)C(F)(F)C(F)(F)C(F)(F)C(F)(F)C(F)(F)C(F)(F)F,CYP2C9,,,concentration not given,,activity,inactive
Nc1cc(C(F)(F)F)c(-c2nc(N3CCOCC3)nc(N3CCOCC3)n2)cn1,"EPHA7 (Homo sapiens, UniProt Q15375)",enzyme activity,,10 µM,baseline: untreated,remaining activity,93%

# For quick reference, copied from above:
SMILES,target,assay,test system,setting,how to read,measurement,result
COC(=O)N[C@H](C(=O)N1CCC[C@H]1c1nc(-c2ccc3c(c2)O[C@@H](c2ccccc2)n2c-3cc3cc(-c4c[nH]c([C@@H]5CCCN5C(=O)[C@@H](NC(=O)OC)C(C)C)n4)ccc32)c[nH]1)C(C)C,CYP2C9,inhibitor,human liver microsomes,,,pIC50,< 4.00
Cc1nn(C)cc1S(=O)(=O)NC(=O)c1ccc(-n2ccc(OCC(C)(C)C(F)(F)F)n2)nc1N1C[C@@H](C)CC1(C)C,CYP2C9,inhibitor,,,,pKi,5.26
